Results gathered from unrelated publications.
Protocols differ between the studies behind these lines.
MARK3: MAP/microtubule affinity-regulating kinase 3 (MARK3, Homo sapiens, UniProt P27448)
UniProt P27448, sequence (whole entry, looked up): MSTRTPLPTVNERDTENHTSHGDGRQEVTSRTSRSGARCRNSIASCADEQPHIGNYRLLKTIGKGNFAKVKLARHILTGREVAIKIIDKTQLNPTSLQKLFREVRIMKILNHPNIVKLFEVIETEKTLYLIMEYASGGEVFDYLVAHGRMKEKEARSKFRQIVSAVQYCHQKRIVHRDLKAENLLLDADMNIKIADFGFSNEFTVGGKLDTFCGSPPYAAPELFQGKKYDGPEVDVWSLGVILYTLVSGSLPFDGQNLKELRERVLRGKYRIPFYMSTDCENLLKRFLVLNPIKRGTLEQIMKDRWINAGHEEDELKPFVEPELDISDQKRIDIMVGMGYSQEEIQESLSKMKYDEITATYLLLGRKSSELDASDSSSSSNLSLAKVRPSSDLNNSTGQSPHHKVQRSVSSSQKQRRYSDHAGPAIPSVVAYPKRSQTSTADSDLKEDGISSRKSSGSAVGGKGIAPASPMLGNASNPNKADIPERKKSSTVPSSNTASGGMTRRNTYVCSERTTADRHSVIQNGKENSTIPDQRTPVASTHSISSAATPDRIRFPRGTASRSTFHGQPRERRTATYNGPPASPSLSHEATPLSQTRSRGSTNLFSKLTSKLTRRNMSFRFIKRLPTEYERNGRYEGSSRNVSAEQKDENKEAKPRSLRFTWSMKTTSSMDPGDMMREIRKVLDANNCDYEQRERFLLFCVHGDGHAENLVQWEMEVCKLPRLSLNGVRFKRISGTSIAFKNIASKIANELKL
UniProt P06213, sequence (whole entry, looked up): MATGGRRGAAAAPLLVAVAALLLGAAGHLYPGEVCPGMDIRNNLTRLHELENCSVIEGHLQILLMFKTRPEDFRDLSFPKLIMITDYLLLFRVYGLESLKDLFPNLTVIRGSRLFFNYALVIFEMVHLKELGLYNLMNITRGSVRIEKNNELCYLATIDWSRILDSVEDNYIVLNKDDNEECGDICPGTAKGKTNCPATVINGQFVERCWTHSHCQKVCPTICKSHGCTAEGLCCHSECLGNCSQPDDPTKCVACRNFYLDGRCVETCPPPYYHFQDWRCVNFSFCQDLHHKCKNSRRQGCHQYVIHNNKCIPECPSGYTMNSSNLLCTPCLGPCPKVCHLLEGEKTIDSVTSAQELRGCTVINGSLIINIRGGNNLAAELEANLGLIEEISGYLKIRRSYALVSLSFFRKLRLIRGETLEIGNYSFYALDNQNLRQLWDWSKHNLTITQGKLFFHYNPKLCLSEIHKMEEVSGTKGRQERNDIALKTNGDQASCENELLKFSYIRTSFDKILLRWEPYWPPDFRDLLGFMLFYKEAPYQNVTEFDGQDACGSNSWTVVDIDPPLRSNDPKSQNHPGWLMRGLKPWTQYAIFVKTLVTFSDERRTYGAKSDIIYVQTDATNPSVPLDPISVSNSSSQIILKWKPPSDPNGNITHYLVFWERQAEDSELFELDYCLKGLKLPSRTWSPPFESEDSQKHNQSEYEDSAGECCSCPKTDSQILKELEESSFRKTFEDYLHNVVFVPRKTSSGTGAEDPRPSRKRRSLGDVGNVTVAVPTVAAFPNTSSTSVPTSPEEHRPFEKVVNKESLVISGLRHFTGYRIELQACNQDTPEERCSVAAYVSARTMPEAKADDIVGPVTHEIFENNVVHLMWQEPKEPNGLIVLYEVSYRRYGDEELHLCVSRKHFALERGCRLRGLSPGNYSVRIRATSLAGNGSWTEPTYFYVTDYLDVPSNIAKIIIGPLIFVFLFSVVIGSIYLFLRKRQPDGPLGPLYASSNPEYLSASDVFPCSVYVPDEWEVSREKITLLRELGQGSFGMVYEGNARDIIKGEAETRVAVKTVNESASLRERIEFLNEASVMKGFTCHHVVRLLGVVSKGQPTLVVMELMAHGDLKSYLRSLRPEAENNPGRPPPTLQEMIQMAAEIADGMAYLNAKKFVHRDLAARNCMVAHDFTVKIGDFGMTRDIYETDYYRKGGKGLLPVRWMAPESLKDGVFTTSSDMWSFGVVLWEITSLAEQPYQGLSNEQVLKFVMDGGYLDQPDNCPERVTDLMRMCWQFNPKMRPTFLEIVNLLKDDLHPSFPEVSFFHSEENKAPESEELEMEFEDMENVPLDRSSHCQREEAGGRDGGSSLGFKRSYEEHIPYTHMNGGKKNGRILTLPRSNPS
UniProt Q7L7X3, sequence (whole entry, looked up): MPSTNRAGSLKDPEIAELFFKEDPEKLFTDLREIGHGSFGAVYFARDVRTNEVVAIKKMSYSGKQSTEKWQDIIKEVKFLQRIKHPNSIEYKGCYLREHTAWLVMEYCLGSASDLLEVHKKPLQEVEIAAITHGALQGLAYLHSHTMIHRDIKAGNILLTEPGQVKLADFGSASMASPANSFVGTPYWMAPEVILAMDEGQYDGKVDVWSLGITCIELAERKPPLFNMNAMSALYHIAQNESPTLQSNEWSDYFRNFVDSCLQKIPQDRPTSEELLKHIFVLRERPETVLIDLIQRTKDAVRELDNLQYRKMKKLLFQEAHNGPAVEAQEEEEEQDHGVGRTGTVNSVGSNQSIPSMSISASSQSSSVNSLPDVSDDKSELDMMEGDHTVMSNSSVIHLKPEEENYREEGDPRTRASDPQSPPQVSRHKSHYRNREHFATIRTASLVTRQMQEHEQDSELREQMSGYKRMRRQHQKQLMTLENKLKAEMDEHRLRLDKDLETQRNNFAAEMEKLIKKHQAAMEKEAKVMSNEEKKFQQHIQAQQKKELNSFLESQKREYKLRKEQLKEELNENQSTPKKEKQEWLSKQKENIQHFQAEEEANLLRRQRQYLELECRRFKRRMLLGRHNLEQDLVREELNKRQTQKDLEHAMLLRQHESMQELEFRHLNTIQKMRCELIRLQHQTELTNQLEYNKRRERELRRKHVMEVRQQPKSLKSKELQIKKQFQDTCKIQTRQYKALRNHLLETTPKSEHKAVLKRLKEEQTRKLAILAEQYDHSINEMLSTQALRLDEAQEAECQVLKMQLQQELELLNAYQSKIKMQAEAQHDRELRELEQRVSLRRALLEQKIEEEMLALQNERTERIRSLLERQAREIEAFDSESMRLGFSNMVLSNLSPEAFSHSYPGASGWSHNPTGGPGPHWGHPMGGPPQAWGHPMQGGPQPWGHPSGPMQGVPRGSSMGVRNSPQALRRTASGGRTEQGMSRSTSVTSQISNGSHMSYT
UniProt Q01959, sequence (whole entry, unmodified, looked up): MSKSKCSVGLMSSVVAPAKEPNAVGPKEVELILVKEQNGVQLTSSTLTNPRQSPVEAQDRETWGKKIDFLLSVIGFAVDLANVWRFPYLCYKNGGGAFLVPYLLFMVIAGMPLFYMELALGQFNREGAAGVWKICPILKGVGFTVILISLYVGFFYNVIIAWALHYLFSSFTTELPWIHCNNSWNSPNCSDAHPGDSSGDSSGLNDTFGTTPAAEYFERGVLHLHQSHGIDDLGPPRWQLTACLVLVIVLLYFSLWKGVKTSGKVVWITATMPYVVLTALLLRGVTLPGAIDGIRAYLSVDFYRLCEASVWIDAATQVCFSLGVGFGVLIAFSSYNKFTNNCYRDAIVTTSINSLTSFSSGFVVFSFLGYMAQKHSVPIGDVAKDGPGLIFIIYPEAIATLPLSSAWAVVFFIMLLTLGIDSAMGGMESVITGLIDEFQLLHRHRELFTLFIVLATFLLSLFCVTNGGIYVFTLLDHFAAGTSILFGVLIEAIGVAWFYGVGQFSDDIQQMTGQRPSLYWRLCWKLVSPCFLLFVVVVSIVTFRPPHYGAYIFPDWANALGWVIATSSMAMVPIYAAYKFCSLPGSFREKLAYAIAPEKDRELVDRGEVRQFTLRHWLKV
UniProt Q13470, sequence (whole entry, looked up): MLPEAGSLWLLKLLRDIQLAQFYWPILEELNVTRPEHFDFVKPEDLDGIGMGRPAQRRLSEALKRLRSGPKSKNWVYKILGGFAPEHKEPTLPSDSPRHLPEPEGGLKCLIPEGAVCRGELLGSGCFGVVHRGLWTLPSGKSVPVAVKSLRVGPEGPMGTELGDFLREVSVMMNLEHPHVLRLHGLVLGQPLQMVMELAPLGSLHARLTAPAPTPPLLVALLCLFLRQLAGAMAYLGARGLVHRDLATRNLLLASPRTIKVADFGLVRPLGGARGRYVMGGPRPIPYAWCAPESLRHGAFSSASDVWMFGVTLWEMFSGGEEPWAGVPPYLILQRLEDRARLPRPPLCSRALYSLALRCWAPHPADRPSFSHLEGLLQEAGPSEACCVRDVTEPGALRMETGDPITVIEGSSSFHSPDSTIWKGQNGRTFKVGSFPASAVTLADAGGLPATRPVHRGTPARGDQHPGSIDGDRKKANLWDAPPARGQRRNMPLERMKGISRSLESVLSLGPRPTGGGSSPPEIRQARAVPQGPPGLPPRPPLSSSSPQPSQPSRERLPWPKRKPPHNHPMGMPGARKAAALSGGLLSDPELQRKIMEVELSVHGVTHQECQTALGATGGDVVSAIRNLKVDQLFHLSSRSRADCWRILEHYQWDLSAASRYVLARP
UniProt Q92630, sequence (whole entry, looked up): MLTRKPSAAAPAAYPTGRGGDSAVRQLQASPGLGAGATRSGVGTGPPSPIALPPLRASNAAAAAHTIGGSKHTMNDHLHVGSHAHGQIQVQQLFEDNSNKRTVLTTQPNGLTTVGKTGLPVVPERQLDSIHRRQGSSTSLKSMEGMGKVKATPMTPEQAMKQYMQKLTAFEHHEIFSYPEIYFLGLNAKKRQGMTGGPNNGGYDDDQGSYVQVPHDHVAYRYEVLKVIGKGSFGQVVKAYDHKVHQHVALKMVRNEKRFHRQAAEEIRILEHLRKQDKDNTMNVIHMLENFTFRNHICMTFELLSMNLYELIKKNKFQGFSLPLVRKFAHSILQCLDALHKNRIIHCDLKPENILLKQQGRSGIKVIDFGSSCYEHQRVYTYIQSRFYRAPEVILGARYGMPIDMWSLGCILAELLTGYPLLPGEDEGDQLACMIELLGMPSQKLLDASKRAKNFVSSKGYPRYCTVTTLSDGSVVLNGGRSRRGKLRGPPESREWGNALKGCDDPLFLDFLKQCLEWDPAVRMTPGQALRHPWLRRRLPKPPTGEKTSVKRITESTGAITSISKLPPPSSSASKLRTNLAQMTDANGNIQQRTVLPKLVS

COc1cc(Nc2ncc3c(n2)-c2ccc(Cl)cc2C(c2c(F)cccc2OC)=NC3)ccc1C(=O)O — remaining activity (SGK2; kinase activity; 1 µM): 107%
COc1cc(-c2cncc3c2CN(C)Cc2cc(N4CCNCC4)ccc2-3)cc(OC)c1OC — remaining activity (Insulin receptor, activated (INSR, Homo sapiens, UniProt P06213); kinase activity; 1 µM, with: ATP 10 µM; reference: DMSO control): 116%
COc1cc(N2CCN(C)CC2)ccc1Nc1nc(N)n(C(=O)NCc2ccccc2S(=O)(=O)C(C)C)n1 — remaining activity (G protein-coupled receptor kinase 4 (GRK4, Homo sapiens, UniProt P32298); enzyme activity; 10 µM; reference: control): 16%
N[C@@H]1CC[C@@H](c2ccc(Cl)c(Cl)c2)c2ccccc21 — remaining activity (Sodium-dependent dopamine transporter (SLC6A3, Homo sapiens, UniProt Q01959, S422A); dopamine uptake; 0.0001 µM, 0.03333 h, S422A mutant, with: [3H]dopamine; reference: no inhibitor): 112%
CNc1ncc2c(/C=C/C(=O)N3CCC(OC)CC3)nn(Cc3cccc(C(F)(F)F)c3)c2n1 — remaining activity (Mitogen-activated protein kinase kinase kinase 10 (MAP3K10, Homo sapiens, UniProt Q02779); kinase activity, inhibitor; 1 µM; reference: untreated control): 100%
CN(C)CC#Cc1ccc2[nH]c3c(c2c1)-c1nc(N)ncc1CCC3 — remaining activity (MARK3; kinase activity, inhibitor, radiometric; 1 µM, with: ATP at Km): 70%
O=C1NC(=O)/C(=C/c2ccc(-c3ccc(F)cc3O)o2)S1 — remaining activity (MARK3; enzyme activity; 10 µM): 67%
O=C(NC1CCC1)c1ccc2nc(-c3cccc(NS(=O)(=O)NCCN4CCCCC4)c3)cn2c1 — remaining activity (Ephrin type-B receptor 4 (EPHB4, Homo sapiens, UniProt P54760); enzyme activity; 10 µM): 85%
O=C(O)c1ccc(Nc2ncc3c(n2)-c2ccc(Cl)cc2C(c2c(F)cccc2F)=NC3)cc1 — remaining activity (human DDR2(h); kinase activity; 1 µM): 87%
COc1cc(N2CCN(C)CC2)ccc1Nc1nc(N)n(C(=S)NCc2c(Cl)cccc2Cl)n1 — remaining activity (Hormonally up-regulated neu tumor-associated kinase (HUNK, Homo sapiens, UniProt P57058); enzyme activity; 10 µM; reference: control): 0%
Cc1cc(Nc2cc(N3CCN(C)CC3)nc(Sc3ccc(NC(=O)C4CC4)cc3)n2)[nH]n1 — remaining activity (Serine/threonine-protein kinase TAO1 (TAOK1, Homo sapiens, UniProt Q7L7X3); kinase activity, KinaseProfiler; 0.03 µM, species human; reference: control): 107%
COc1cc(N2CCN(C)CC2)ccc1Nc1nc(N)n(C(=O)NCc2c(Cl)cccc2Cl)n1 — remaining activity (Dual specificity tyrosine-phosphorylation-regulated kinase 2 (DYRK2, Homo sapiens, UniProt Q92630); enzyme activity; 10 µM; reference: control): 24%
C=CC(=O)N1CCC[C@@H](n2nc(-c3ccc(Oc4ccccc4)cc3)c3c(N)ncnc32)C1 — remaining activity (Non-receptor tyrosine-protein kinase TNK1 (TNK1, Homo sapiens, UniProt Q13470); 0.1 µM): 209%
COc1cc(F)ccc1-c1ncnc(Nc2cccc(C[S@](C)(=N)=O)c2)n1 — remaining activity (Insulin receptor (INSR, Homo sapiens, UniProt P06213); kinase activity; 10 µM, with: 10 µM ATP): 95%

For quick reference, copied from above:
CN(C)CC#Cc1ccc2[nH]c3c(c2c1)-c1nc(N)ncc1CCC3 — remaining activity (MARK3; kinase activity, inhibitor, radiometric; 1 µM, with: ATP at Km): 70%
